{"data": "Published values pooled from the literature", "note": "A part holds a random share of what one study measured.", "chain of UniProt P08913 (whole entry, looked up)": "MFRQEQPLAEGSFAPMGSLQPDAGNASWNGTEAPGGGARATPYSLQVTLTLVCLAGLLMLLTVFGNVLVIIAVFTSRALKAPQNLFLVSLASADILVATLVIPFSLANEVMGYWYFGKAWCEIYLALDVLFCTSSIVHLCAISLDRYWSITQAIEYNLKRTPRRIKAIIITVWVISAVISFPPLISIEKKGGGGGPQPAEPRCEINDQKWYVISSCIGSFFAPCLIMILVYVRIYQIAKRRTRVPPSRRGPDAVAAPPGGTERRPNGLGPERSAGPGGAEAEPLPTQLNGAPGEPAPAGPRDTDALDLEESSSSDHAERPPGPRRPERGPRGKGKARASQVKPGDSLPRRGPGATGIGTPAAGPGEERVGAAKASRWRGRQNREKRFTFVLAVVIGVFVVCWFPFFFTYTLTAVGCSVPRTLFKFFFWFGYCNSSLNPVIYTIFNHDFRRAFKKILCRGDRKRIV", "chain of UniProt P21917 (whole entry, looked up)": "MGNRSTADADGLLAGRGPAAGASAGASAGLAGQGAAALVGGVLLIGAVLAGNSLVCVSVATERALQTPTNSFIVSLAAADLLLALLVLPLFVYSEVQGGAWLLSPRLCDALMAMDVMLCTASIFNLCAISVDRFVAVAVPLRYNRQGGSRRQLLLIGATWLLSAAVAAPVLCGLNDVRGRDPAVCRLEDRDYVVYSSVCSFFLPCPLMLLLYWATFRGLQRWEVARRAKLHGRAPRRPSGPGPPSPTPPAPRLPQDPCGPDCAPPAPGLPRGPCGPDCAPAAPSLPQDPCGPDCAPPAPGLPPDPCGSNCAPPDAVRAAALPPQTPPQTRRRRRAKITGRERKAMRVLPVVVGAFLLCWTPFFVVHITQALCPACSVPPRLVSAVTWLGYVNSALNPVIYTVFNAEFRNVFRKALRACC", "chain of UniProt P28566 (whole entry, looked up)": "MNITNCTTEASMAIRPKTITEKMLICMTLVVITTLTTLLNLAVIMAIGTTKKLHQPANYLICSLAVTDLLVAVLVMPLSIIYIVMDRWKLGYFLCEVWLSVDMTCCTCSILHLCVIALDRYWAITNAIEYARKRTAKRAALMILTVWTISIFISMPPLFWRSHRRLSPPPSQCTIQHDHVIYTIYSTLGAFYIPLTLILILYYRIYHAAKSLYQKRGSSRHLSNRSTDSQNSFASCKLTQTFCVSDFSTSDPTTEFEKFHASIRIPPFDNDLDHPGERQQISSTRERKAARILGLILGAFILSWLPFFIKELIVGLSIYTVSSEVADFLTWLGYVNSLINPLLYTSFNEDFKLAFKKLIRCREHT", "chain of UniProt P50406 (whole entry, looked up)": "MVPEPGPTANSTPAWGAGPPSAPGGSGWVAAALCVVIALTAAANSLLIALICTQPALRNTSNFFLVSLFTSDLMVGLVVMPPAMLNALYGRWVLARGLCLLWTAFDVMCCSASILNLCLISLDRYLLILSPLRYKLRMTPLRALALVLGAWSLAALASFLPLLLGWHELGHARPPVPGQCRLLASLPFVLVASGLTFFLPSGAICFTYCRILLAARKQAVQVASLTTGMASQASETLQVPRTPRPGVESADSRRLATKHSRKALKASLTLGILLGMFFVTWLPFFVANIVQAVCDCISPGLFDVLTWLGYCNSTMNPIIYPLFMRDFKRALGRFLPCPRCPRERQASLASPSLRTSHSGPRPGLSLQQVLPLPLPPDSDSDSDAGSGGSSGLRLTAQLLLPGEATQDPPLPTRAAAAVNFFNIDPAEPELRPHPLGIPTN"}
{"data": "Block 1", "target": "Centromere-binding protein 1, full length, N-terminal tag (CBF1, Saccharomyces cerevisiae, UniProt P17106, residues 1-351)", "technique": "protein-binding microarray", "form": "double-stranded DNA, one strand shown", "medium": "in vitro", "tested at": "0.8 µM", "notes": "whole 60-bp probe, no competitor", "reading": "higher = stronger binding", "chain of UniProt P17106 (whole entry, looked up)": "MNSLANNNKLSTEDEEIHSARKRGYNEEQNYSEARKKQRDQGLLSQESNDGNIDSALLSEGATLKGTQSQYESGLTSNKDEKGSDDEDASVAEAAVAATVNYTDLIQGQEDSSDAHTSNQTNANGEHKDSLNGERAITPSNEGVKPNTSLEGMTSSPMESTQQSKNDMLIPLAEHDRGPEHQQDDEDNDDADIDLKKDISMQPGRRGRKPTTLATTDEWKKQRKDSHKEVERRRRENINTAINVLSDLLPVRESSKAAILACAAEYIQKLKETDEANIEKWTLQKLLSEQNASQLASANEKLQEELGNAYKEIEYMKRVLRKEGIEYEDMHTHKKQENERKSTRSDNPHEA"}
{"Sequence": "GAAACATGTAATTGTCATCAGCTGTATACTGTTTAGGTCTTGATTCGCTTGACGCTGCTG", "fluorescence intensity": "579 a.u."}
{"Sequence": "CTAACCCTTGTCGGTCACGTGAGCAAAAATACTTTCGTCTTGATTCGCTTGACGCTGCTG", "fluorescence intensity": "39300 a.u."}
{"Sequence": "GAAAACTCCCACCAGGACGTGGTGGGAAATGCATAGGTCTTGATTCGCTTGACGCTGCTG", "fluorescence intensity": "486 a.u."}
{"Sequence": "CTATGCCACTGCCTGCACATGCATTGATACTGCTTCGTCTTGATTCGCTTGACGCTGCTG", "fluorescence intensity": "642 a.u."}
{"Sequence": "GAATGTATATTTGATCACGTATTGAACTGTTACTAGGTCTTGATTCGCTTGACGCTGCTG", "fluorescence intensity": "942 a.u."}
{"Sequence": "GAAGAGCTTCGCTGACACGTGGGAGGTGGGATATAGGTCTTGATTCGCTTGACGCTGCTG", "fluorescence intensity": "2420 a.u."}
{"Sequence": "GAAGCCTTAACTTCTGACGTGAAAAAAAAAAAATAGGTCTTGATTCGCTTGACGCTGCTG", "fluorescence intensity": "603 a.u."}
{"Sequence": "CTATTCGCGGCGTTACACGTGAGTTCATATTATTTCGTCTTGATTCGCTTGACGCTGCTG", "fluorescence intensity": "3650 a.u."}
{"data": "Block 2", "target": "TAR DNA-binding protein 43, full length, His tag (TARDBP, Homo sapiens, UniProt Q13148, residues 1-414)", "technique": "RNA Bind-n-Seq", "form": "RNA", "medium": "in vitro", "tested at": "20 nM", "notes": "6-mer, flanks averaged, single round", "together with": "150 mM LiCl", "baseline": "input library", "reading": "higher = stronger binding"}
{"Sequence": "AGGGGA", "6-mer enrichment (R)": 1.19}
{"Sequence": "UUACAU", "6-mer enrichment (R)": 0.921}
{"Sequence": "UCGCAA", "6-mer enrichment (R)": 0.833}
{"Sequence": "UUAACG", "6-mer enrichment (R)": 0.865}
{"Sequence": "UCGAAC", "6-mer enrichment (R)": 0.811}
{"Sequence": "UCUGAU", "6-mer enrichment (R)": 0.839}
{"Sequence": "GGGCCA", "6-mer enrichment (R)": 1.04}
{"Sequence": "GCAACU", "6-mer enrichment (R)": 0.845}
{"data": "Block 3", "Structure (SMILES)": "CNC(=O)c1cc(C(=O)N[C@H]2[C@@H]3COC[C@@H]32)cc2c1O[C@H](CF)[C@H]2c1ccccc1", "tested at": "10 µM"}
{"target": "5-hydroxytryptamine receptor 6 (HTR6, Homo sapiens, UniProt P50406)", "read-out": "binding", "technique": "radioligand binding", "inhibition": "16.8%"}
{"target": "5-hydroxytryptamine receptor 1E (HTR1E, Homo sapiens, UniProt P28566)", "read-out": "cell-free assay", "inhibition": "-12.8%"}
{"target": "D(4) dopamine receptor (DRD4, Homo sapiens, UniProt P21917)", "read-out": "binding", "technique": "radioligand binding", "inhibition": "81.6%"}
{"target": "Alpha-2A adrenergic receptor (ADRA2A, Homo sapiens, UniProt P08913)", "read-out": "binding", "technique": "radioligand binding", "inhibition": "1.67%"}
{"data": "Block 4", "target": "Serine/threonine-protein kinase pim-2 (PIM2, Homo sapiens, UniProt Q9P1W9)", "read-out": "enzyme activity", "action": "inhibitor", "tested at": "0.5 µM", "baseline": "control", "chain of UniProt Q9P1W9 (whole entry, looked up)": "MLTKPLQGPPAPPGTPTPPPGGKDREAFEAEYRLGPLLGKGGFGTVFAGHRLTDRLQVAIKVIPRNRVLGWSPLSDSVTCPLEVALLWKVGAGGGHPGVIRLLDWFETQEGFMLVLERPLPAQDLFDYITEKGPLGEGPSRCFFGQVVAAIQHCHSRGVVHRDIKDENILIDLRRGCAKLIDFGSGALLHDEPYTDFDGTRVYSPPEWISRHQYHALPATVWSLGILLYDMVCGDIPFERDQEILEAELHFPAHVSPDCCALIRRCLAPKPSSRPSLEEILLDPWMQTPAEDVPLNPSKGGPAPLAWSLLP"}
{"SMILES": "Cn1sc(=O)n(Cc2ccccc2)c1=O", "remaining activity [%]": 107}
{"SMILES": "COc1ccc(CNC(=O)Nc2ncc([N+](=O)[O-])s2)cc1", "remaining activity [%]": 94.5}
{"SMILES": "CC(C)[C@H](CO)Nc1nc(Nc2cc(N)cc(Cl)c2)c2ncn(C(C)C)c2n1", "remaining activity [%]": 113}
{"SMILES": "COc1ccc(C(=O)Nc2sc3c(c2C(N)=O)CCCC3)cc1OC", "remaining activity [%]": 98.5}
{"SMILES": "Nc1[nH]nc2nc3ccccc3nc12", "remaining activity [%]": 105}
{"SMILES": "O=S(=O)(c1cccc2cnccc12)N1CCCNCC1", "remaining activity [%]": 93.2}
{"SMILES": "Nc1ccc2ncnc(NCCc3ccc(Oc4ccccc4)cc3)c2c1", "remaining activity [%]": 119}
{"SMILES": "Nc1ncnc2n[nH]c(Nc3ccc(F)cc3)c12", "remaining activity [%]": 89.3}
{"SMILES": "COc1cc2nccc(Oc3ccc(NC(=S)NC(=O)c4ccccc4C)cc3)c2cc1OC", "remaining activity [%]": 117}
{"SMILES": "O=C(CCCc1ccc(-c2ccccc2F)cc1)Nc1ccc(O)cc1", "remaining activity [%]": 115}
{"SMILES": "CNC(=O)c1cc(Oc2ccc(NC(=O)Nc3ccc(Cl)c(C(F)(F)F)c3)cc2)ccn1", "remaining activity [%]": 103}
{"SMILES": "Oc1ccc(-c2nc(-c3ccncc3)c(-c3ccc(F)cc3)[nH]2)cc1", "remaining activity [%]": 106}
{"SMILES": "O=C(Nc1cccc(Nc2cc(Nc3cccc(C(F)(F)F)c3)ncn2)c1)C1CC1", "remaining activity [%]": 104}
